Literature values, collected from citations in different studies.
± marks the error that the study gave. In brackets after ≈: the same amount, converted by molar mass.

Amino acid sequences for entries named in this document (tags omitted). Residues count along the entry.
UniProt Q8WUI4, whole entry: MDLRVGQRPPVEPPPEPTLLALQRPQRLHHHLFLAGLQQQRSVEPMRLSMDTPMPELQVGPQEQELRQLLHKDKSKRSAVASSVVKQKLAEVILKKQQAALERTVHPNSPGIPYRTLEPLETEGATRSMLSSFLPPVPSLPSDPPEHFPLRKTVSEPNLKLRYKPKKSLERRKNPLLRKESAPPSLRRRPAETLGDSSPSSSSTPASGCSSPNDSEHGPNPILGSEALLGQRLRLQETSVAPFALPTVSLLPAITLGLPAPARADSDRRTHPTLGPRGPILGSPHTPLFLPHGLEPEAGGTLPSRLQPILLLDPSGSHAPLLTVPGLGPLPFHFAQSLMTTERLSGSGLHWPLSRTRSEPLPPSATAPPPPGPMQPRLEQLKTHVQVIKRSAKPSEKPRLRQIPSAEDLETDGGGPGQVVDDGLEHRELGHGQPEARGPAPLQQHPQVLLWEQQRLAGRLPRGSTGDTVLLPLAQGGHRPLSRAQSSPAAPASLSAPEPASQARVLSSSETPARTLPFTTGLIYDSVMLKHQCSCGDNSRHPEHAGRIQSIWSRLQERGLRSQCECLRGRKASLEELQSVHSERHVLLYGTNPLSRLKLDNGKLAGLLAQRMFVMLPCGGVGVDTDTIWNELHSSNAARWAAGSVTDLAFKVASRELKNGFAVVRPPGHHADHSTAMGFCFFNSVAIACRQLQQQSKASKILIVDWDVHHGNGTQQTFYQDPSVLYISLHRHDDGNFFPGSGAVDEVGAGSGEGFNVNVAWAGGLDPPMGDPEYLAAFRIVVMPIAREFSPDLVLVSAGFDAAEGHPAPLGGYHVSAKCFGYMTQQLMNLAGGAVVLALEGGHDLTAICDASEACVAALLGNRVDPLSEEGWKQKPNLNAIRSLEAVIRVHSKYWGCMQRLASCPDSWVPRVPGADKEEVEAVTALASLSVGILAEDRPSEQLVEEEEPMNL
UniProt Q62645, 28-1323 limits assumed: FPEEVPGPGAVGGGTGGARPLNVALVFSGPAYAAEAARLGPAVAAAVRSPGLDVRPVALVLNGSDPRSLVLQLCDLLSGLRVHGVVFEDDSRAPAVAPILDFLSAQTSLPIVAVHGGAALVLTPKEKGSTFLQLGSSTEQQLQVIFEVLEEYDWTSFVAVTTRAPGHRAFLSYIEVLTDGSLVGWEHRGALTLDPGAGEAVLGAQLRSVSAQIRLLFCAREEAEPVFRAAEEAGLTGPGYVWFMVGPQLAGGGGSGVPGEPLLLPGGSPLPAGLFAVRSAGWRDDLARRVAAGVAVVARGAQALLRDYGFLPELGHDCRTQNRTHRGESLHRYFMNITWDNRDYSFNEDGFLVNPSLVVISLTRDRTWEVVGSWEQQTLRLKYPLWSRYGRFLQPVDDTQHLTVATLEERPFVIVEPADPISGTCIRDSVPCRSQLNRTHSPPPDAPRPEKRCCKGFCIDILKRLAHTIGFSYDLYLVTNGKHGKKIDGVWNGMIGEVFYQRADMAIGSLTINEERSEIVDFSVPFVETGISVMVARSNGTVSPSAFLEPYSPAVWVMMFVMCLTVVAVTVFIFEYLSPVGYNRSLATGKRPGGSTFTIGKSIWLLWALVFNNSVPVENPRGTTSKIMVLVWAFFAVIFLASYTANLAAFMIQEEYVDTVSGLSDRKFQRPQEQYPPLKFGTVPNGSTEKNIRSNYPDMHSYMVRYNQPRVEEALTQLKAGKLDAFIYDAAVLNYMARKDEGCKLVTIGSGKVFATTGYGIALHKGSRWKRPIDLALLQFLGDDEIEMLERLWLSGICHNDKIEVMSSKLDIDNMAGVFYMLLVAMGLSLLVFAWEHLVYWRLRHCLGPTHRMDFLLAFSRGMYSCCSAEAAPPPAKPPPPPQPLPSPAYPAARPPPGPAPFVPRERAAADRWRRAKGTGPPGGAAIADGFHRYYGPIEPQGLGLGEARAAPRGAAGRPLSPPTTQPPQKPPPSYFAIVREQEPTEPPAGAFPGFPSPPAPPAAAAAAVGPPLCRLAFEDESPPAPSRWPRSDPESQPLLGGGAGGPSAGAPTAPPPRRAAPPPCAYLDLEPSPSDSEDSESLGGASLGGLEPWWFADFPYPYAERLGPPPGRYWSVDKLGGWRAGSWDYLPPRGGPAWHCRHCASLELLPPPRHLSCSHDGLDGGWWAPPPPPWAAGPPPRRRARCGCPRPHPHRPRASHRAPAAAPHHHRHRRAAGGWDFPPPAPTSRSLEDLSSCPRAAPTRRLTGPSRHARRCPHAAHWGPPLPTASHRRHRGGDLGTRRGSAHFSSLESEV
UniProt O95696, 562-666 limits assumed: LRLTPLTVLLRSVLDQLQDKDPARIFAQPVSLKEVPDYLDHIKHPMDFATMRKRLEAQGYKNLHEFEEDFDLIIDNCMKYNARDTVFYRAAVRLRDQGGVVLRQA

| Compound | target or system | test | system | setting | how to read | quantity | result |
| --- | --- | --- | --- | --- | --- | --- | --- |
| CCC(C)NC(=O)CSc1nnc(Nc2ccc(C(C)C)cc2)s1 (stereo not drawn) |  |  | FaSSIF |  |  | solubility | 108 µM (≈ 39.4 µg/mL) |
| Cc1cccc(C2NC(=O)c3c(Cl)cccc3N2)c1 (racemic) | SMARCA2 bromodomain | DSF and ITC |  | concentration not given, racemate |  | binding | no binding |
| COc1cc(O)cc2ccc3cc(O)ccc3c12 | CDK4/6 | kinase activity, inhibitor |  |  |  | IC50 | 38 nM |
| CCC[C@H](O)[C@H](NC[C@@H]1Cc2cccc(c2)CCCCc2cc(cc(N(CCC)S(C)(=O)=O)c2)C(=O)N1)C(=O)NCC(C)C | BACE1 | enzyme activity, inhibitor, fluorogenic peptide substrate |  |  |  | Ki | 7 ± 5 nM |
| Cc1ccsc1C(=O)n1nc(Nc2ccc(S(N)(=O)=O)cc2)nc1N | CDK4/6 | kinase activity, inhibitor |  |  |  | IC50 | 1.34 nM |
| c1ccc(CCN2CCN(c3cc(N4CCCC4)nc(N4CCCC4)n3)CC2)cc1 | caspase-5 | inhibitor |  | range shared with caspase-1 |  | Ki | 8 to 16 nM |
| CC(=O)N[C@@H](CC(C)C)C(=O)NCC(=O)N[C@@H](CCCCNC(=O)C(F)(F)F)C(=O)Nc1ccc2c(C)cc(=O)oc2c1 | Histone deacetylase 7 (HDAC7, Homo sapiens, UniProt Q8WUI4) | substrate |  |  |  | Km | 19.8 µM |
| CC(C)(C)OC(=O)C1=CC(C)(C(=O)c2ccccc2)CCC1=O (stereo not drawn) | RSK2 C-terminal kinase domain | binding |  |  |  | dissociation half-life | 4 h |
| CN(C)Cc1cn(Cc2ccc(C(=O)NO)cc2)c2ccccc12 | HDAC10 (human) | enzyme activity, inhibitor |  | concentration not given | baseline: over Tubastatin A, higher = more potent | potency fold change | 2.4 fold |
| CCN1CCN(Cc2ccc(Nc3cc(-c4cc(F)c5nc(C)n(C(C)C)c5c4)ccn3)nn2)CC1 | CDK4/6 | kinase activity, inhibitor |  |  |  | IC50 | 26 nM |
| Cc1ccc(Cn2cnc3ccccc32)cc1C | CYP125 Mycobacterium tuberculosis |  |  |  |  | Kd | 1300 ± 700 nM |
| O=C(O)c1cc([C@H]2CCN[C@@H]2C(=O)O)ccc1Cl | Glutamate receptor ionotropic, NMDA 2D, with GluN1 (Rattus norvegicus, UniProt Q62645) | ion current, antagonist, two-electrode voltage clamp |  | GluN1/GluN2D |  | IC50 | 41000 nM |
| C/C=C/Cn1c(Cc2cc(OC)c(OC)c(OC)c2)nc2c(N)ncnc21 | Trap-1 | binding, fluorescence polarization competition |  |  |  | IC50 | 173000 ± 7300 nM |
| Cc1cc(C)cc(Nc2nccc(-c3c(-c4ccc(F)cc4)ncn3C3CCNCC3)n2)c1 | Bromodomain-containing protein 1 (BRD1, Homo sapiens, UniProt O95696) |  |  | concentration not given |  | inhibition | > 35% |
| CNC(=O)[C@@]12C[C@@H]1[C@@H](n1cnc3c(NCCc4ccc(OC)c(OC)c4)nc(C#Cc4ccc(Cl)s4)nc31)[C@H](O)[C@@H]2O |  | pION |  | pH 7.4 |  | aqueous solubility | 3.84 ± 0.52 µg/mL (≈ 6.3 µM) |

Some of these lines once more:
| Compound | target or system | test | system | setting | how to read | quantity | result |
| --- | --- | --- | --- | --- | --- | --- | --- |
| Cc1cccc(C2NC(=O)c3c(Cl)cccc3N2)c1 (racemic) | SMARCA2 bromodomain | DSF and ITC |  | concentration not given, racemate |  | binding | no binding |
